Results of several laboratories.
± marks the error that the study gave.
Cell line: MDA-MB-468

Nc1c2ccccc2nc2ccccc12
IC50 (cell growth or viability, MTT; 96 h): 1.1 µM

C/C(=C\C(=O)N[C@H]1CCc2cccc3c2N(C1=O)[C@H](C(=O)N[C@H](C)CCC(N)=O)C3)c1ccc(C(F)(F)P(=O)(OCOC(=O)C(C)(C)C)OCOC(=O)C(C)(C)C)cc1
IC50 (cell growth, MTT; 72 h, 10% FBS): ~30 µM

Cc1c(-c2ccc(C(=N)N)cc2)oc(-c2ccc(C(=N)N)cc2)c1C
IC50 (cytotoxicity, MTT; 3 h exposure, 96 h total): 14 ± 2 µM

O=c1[nH]cc(F)c(=O)[nH]1
IC50 (cell growth or viability, MTS; 72 h): 6.83 µM

CC(C)Cc1ccc([C@H](C)C(=O)O)cc1
IC50 (cell growth or viability, SRB; 72 h): > 625 µM

CC(=O)c1c(C)c2cnc(Nc3ccc(N4CCNCC4)cn3)nc2n(C2CCCC2)c1=O
IC50 (cell growth or viability; 6 days): > 5 µM

O=S1(=O)N=C(NCc2ccc(OC(F)(F)F)cc2)Nc2ccccc21
IC50 (cell growth or viability, MTS; 72 h): 19.6 µM

CCCC[C@H](NC(=O)/C=C(\C)c1ccc(C(F)(F)P(=O)(OCOC(=O)C(C)(C)C)OCOC(=O)C(C)(C)C)cc1)C(=O)N1C[C@@H]2C[C@@H]2[C@@H]1C(=O)N[C@@H](CCC(N)=O)C(C)OCc1ccccc1 (stereo partly shown)
IC50 (cell growth, MTT; 72 h, 10% FBS): 10 to 15 µM

CC(NC1=NS(=O)(=O)c2ccc(Cl)cc2N1)c1ccccc1 (stereo not shown)
IC50 (cell growth or viability, MTS; 72 h): 43.5 µM

CCN(CC)CCCC(C)Nc1c2ccc(Cl)cc2nc2ccc(OC)cc12 (stereo not shown)
IC50 (cell growth or viability, MTT; 96 h): 1.7 µM

Excerpt of the above:
CC(NC1=NS(=O)(=O)c2ccc(Cl)cc2N1)c1ccccc1 (stereo not shown)
IC50 (cell growth or viability, MTS; 72 h): 43.5 µM
